Assay results of several laboratories.
Every numbered part comes from another study and shows a few of its results, in no order. Positions count from the first letter of the parent shown.

Series 1 — method: DHFR PCA, deep sequencing; medium: yeast; with: (+)-ABA 710 µM; relative to: wild-type fitted maximum; reading: higher = stronger binding
Target: ABI1, truncated, D143A, DHFR fusion (Arabidopsis thaliana)
Notes: methotrexate growth selection, single substitutions
Starting sequence: PYL1, truncated, DHFR fusion (Arabidopsis thaliana); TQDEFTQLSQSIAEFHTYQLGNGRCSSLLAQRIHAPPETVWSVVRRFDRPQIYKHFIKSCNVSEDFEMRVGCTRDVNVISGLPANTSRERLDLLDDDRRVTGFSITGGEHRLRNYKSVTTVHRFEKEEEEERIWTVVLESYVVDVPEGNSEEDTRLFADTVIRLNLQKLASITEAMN
Under “relative binding score”, `G23R` is recorded as 99.4%.
`T135A` — result for “relative binding score”: 94%.
`R99F`: “relative binding score” 110%.
`N165W`: “relative binding score” 19.4%.
`C72N` — result for “relative binding score”: 94.9%.
Under “relative binding score”, `T119W` is recorded as -6.41%.
`G102S` — result for “relative binding score”: 109%.
For `S27H`, “relative binding score” read 101%.

Series 2 — method: protein binding microarray; form: double-stranded DNA, one strand shown; medium: in vitro; tested at: not given; relative to: not given; reading: higher = stronger binding
Target: Histone acetyltransferase KAT6A, winged helix 1, GST fusion (KAT6A, Homo sapiens, UniProt Q92794, residues 1-85)
Notes: 8-mer, flanks averaged, mean of 2 arrays, mostly near background
Residues (chain): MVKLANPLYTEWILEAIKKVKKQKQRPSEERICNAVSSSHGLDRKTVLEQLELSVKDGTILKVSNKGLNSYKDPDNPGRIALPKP
`CCCAACTC` gave an E-score of -0.272.
The E-score of `AAGCTATT` is reported as -0.159.
`TGCTGTAA` has an E-score of -0.197.
The E-score of `ATAAACAT` is reported as -0.0933.
With `CTCATTCC` the E-score was -0.00144.
`GGACTACA` gave an E-score of -0.0194.
With `CAGACGCC` the E-score was 0.0434.
With `ACAGATCG` the E-score was 0.00428.
`AAATCTCG` has an E-score of -0.0775.
`CCCAGCTC` gave an E-score of -0.0996.
`TCCGCGGA` gave an E-score of 0.387.
For `ATCAAGAT`, the E-score was -0.192.
With `ACGATAAA` the E-score was 0.0393.
The E-score of `GGAAAACA` is reported as -0.133.
For `CACGGCAA`, the E-score was 0.362.
For `AATGTTAG`, the E-score was -0.0231.
`GTCGATGA` has an E-score of -0.0984.
With `GCCATGCC` the E-score was 0.277.
With `CGCAAACG` the E-score was 0.208.
`AGCTCCGC` has an E-score of 0.233.
`CCTTATTA` has an E-score of -0.159.
`AAACTGCG` has an E-score of 0.19.

Series 3 — target: CCND1, cyclin fold, Cln2 fusion (human); method: yeast growth competition, sequencing; medium: yeast; notes: strong parent motif; relative to: not given; reading: higher = stronger binding
Starting sequence: RBL1 docking peptide (human); GSAKRRLFGEDPP
For `G9W`, “normalised enrichment score” read 2.85.
`L7Q`: “normalised enrichment score” 0.795.
For `G1F`, “normalised enrichment score” read 2.78.
Under “normalised enrichment score”, `A3N` is recorded as 0.0525.
`K4C` — result for “normalised enrichment score”: 2.61.
For `A3R`, “normalised enrichment score” read 0.245.
`A3G` — result for “normalised enrichment score”: 0.197.
`G9A`: “normalised enrichment score” 3.83.
For `K4T`, “normalised enrichment score” read 1.18.
Under “normalised enrichment score”, `K4N` is recorded as 1.08.
`R6G`: “normalised enrichment score” 0.241.
`G1E`: “normalised enrichment score” 1.76.
For `P13Y`, “normalised enrichment score” read 1.11.
`R5I` — result for “normalised enrichment score”: 1.01.
`P12K`: “normalised enrichment score” 1.37.
`R6W` — result for “normalised enrichment score”: -0.246.

Series 4 — method: RNA Bind-n-Seq; form: RNA; medium: in vitro; tested at: not given; relative to: input RNA pool; reading: higher = stronger binding
Target: RING finger protein unkempt homolog, zinc fingers 1-6, GST-SBP tag (UNK, Homo sapiens, UniProt Q9C0B0, residues 30-357)
Notes: RNA with constant flanks, human and mouse sites, ends assumed
Residues (chain): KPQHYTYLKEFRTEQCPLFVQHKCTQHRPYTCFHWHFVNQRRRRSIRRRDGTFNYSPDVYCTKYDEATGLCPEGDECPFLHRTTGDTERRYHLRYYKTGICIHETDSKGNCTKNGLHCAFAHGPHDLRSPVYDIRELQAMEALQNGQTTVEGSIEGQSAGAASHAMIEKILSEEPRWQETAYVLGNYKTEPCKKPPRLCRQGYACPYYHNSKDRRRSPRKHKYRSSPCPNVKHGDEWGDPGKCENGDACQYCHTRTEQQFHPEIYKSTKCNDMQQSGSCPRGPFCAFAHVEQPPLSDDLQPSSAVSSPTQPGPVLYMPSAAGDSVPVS
With `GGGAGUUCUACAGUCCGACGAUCCGGAGCCCCCUGACCCAGGAACAGCUCAUCCCCAACUUGGCUAUGAAGGAGGUUAUUGACGCAUUCAUCUCUGAGAAUGGCUGGGUGGAGGACUACUGAGGUUCCCUGCCCUACCUGGCGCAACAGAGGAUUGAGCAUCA` the bound/input enrichment was 0.0665 ratio.
With `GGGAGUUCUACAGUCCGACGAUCAAGAACUUCAAGGGUACUAUUGAAGAACUGGCUCCAAAUCAAUAUGUGAUUAGUGGUGAAGUAGCUAUUCUUAAUUCUACAACCAUUGAAAUCUCAGAGCUUCCCGUCAGAACAUGGACCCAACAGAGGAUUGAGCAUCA` the bound/input enrichment was 0.283 ratio.
`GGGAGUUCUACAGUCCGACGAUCACACCUUUGGCCAACAUUUCUUCUGAGUAUCCAAUGCAAAGAUCCAUGCCAGUGGUGCCAUCUUUUGUAGCCAGCAACAGAGCAGAUGAAAAUGCCGCUGCAUACUUUGAGAGUCCUAAUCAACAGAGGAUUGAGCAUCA` gave a bound/input enrichment of 0.167 ratio.
With `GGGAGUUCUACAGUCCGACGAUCCCAGACGACGGACUCACAGCACAGCAGCUCUUCAACUGCGGAGACGGCCUCACCUACAAUGACUUUCUCAUUCUCCCUGGGUACAUCGACUUCACUGCAGACCAGGUGGACCUGACUUCUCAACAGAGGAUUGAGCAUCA` the bound/input enrichment was 0.178 ratio.
With `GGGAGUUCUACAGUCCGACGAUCCAGAUCAGUAAGCAAGGCCUUUCUGGGGCAGUGGUAGACCUAACCAGAUCAUCUGAACAUAUCCAGUUUUCAGUGGAAGAGCUUAAAAACUUGUUCACACUACAUGAAAGUUCACAUUGUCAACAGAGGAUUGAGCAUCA` the bound/input enrichment was 0.0849 ratio.
`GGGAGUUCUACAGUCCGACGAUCAGCCUUCGAGGAAGAGGCCCUCCUCCUUCUUGGGCUUCUGAACCUGAACGCCCAUCCAUCCUUAGUGCAUCCGAACUGAAGGAGCUCGAUAAAUUUGAUAACCUAGAUGCUGAAGCAGAUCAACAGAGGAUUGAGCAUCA` has a bound/input enrichment of 0.338 ratio.
For `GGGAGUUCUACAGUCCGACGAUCAGGAAGCAGCAGUUUUGUUGGCAUGUCAAGCUCCAGUUUCCUCAGAGUCAAGCAGAGUACAUAGAAAAAAGAGUACCAGAUGAUAAAACUAUUAAUGAAAUUCUAAAGCCUUACAUCGAUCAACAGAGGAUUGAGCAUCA`, the bound/input enrichment was 1.07 ratio.
The bound/input enrichment of `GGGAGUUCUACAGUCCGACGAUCGGAGACGUUUGAUGCAAAUGAUUUGUAUCAGGGGCAGAAUUUUAACAAGGUCCUCAGUUCCUUAGUGACUCUAAAUAAAGUAACAGCAGACAUCGGGCUGGGGAGUGACUCCGUGUGUGCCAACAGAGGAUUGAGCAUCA` is reported as 0.249 ratio.

A few entries again (series 2):
With `CAGACGCC` the E-score was 0.0434.
For `CACGGCAA`, the E-score was 0.362.
With `CGCAAACG` the E-score was 0.208.
`AAATCTCG` has an E-score of -0.0775.
`TCCGCGGA` gave an E-score of 0.387.
`AAACTGCG` has an E-score of 0.19.
For `AATGTTAG`, the E-score was -0.0231.
With `ACAGATCG` the E-score was 0.00428.
